Measured values pooled from the literature.
Numbered parts are unrelated; each lists some results of a single study.
UniProt Q96BR1, sequence (whole entry, looked up): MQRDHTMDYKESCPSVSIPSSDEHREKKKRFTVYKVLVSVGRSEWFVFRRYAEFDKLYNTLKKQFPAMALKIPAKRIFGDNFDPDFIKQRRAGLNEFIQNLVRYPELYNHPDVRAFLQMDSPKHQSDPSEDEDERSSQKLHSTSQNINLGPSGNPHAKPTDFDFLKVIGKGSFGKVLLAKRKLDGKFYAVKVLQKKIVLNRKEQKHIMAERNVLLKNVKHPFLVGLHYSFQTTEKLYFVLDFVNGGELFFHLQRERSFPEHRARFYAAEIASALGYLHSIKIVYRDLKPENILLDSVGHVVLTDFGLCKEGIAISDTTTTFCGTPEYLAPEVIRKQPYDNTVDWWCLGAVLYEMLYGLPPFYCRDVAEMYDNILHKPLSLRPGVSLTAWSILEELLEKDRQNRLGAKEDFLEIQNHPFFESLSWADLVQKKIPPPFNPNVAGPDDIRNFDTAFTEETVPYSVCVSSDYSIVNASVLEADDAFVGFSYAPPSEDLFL
UniProt P0C264, sequence (whole entry, looked up): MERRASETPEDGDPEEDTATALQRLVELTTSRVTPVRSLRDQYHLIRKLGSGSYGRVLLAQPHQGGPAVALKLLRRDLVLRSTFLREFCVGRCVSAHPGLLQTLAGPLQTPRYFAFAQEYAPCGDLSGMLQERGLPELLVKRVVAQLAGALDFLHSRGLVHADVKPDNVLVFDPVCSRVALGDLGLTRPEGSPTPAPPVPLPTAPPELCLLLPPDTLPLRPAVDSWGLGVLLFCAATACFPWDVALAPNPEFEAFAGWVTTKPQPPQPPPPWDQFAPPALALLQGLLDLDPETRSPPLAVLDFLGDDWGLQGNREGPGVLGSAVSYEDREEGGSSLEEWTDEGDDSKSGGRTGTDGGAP
UniProt Q9Y4K4, sequence (whole entry, looked up): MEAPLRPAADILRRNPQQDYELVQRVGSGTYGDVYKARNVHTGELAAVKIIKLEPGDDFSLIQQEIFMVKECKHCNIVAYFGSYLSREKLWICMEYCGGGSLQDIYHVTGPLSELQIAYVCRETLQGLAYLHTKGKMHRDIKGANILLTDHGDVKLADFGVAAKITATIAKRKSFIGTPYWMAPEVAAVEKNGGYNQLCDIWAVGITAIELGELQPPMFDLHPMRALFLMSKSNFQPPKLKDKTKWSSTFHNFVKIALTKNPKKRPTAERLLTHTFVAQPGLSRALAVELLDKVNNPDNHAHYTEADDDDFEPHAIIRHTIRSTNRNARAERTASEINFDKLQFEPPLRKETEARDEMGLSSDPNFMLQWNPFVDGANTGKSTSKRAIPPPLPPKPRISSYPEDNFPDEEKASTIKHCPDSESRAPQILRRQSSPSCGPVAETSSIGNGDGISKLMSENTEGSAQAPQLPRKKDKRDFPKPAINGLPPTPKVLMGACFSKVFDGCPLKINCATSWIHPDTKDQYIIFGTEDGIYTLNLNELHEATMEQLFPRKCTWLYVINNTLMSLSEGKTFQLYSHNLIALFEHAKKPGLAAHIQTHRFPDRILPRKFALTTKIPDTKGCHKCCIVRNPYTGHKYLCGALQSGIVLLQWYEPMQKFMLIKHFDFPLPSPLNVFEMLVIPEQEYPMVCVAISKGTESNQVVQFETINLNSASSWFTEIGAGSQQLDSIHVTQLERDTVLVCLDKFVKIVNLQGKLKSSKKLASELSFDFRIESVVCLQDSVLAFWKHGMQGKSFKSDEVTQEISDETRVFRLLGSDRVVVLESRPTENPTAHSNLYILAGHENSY
UniProt Q13188, sequence (whole entry, looked up): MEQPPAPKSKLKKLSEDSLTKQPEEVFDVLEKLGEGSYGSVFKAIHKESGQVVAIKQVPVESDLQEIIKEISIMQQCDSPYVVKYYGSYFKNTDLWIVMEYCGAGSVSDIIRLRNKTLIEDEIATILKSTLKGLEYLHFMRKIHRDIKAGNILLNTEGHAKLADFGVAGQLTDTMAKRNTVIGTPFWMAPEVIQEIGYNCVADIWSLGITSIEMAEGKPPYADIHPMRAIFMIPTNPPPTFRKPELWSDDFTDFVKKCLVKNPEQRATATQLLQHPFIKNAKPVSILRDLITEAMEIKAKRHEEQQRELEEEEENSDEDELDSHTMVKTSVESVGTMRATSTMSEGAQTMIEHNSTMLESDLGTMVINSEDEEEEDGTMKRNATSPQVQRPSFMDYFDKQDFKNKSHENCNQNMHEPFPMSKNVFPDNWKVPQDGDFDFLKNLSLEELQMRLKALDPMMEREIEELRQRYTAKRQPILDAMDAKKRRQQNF
UniProt Q13464, sequence (whole entry, looked up): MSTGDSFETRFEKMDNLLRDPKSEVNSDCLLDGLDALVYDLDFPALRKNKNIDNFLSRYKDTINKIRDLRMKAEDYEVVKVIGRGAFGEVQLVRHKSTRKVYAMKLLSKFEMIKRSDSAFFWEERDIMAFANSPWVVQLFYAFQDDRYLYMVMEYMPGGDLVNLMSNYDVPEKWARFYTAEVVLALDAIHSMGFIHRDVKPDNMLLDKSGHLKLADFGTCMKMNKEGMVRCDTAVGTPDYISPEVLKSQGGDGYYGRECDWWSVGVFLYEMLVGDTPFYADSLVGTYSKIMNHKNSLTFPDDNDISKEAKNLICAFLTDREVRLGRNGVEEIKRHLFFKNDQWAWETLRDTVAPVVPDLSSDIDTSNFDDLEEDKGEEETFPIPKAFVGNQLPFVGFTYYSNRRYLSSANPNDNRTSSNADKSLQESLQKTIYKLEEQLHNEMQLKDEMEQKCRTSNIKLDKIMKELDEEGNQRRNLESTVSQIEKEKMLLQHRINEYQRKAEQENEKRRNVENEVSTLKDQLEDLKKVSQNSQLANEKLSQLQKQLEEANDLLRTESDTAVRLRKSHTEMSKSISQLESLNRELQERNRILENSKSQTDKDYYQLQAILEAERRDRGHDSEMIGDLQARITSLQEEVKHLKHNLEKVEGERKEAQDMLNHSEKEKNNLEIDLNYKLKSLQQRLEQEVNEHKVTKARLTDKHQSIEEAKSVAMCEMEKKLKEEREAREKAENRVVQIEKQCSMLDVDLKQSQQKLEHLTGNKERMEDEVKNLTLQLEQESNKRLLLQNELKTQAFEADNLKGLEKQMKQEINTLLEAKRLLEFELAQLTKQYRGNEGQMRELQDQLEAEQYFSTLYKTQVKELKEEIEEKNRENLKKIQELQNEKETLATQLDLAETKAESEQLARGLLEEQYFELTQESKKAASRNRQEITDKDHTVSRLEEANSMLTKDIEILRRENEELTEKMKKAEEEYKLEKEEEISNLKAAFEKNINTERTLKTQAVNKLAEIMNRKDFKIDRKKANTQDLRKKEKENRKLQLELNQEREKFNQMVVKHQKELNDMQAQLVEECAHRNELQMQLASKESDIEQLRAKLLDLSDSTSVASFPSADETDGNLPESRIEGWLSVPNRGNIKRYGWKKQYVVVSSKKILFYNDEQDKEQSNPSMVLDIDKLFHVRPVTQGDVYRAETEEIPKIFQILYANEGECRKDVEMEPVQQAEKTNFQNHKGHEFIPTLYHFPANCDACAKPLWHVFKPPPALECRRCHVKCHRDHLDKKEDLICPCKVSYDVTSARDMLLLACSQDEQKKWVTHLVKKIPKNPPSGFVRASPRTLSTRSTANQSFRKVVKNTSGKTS
UniProt P10721, sequence (whole entry, unmodified, looked up): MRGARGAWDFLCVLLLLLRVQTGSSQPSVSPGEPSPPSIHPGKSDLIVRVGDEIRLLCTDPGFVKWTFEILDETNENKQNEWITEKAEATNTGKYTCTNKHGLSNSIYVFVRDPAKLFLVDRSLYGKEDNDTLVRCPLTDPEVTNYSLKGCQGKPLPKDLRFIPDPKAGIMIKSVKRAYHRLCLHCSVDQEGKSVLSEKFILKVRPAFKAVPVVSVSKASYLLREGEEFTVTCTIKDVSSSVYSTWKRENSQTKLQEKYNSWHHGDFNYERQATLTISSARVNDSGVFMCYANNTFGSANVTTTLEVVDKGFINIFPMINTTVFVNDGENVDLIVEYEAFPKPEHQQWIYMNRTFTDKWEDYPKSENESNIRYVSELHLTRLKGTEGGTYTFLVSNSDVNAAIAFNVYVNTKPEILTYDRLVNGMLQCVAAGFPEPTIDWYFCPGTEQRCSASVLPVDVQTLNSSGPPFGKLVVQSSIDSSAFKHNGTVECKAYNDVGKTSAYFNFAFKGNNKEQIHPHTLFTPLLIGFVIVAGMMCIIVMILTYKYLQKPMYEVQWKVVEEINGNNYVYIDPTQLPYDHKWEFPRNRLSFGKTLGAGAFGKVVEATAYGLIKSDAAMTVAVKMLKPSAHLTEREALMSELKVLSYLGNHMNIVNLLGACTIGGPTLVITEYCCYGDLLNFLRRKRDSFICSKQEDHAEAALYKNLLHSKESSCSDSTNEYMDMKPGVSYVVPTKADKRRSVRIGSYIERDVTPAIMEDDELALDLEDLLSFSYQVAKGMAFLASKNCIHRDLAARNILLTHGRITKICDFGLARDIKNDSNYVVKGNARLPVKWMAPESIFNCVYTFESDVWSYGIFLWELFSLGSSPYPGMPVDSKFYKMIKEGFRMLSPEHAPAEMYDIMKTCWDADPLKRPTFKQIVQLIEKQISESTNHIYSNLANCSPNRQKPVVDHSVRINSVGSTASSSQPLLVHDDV

Block 1 — effect on: cell-free assay; technique: competition with immobilised ligand; concentration: 1 µM; measurement: remaining binding
SMILES: C[C@H](NC(=O)c1cnc2n1[C@](C)(Cc1ccc(C#N)cc1)C(=O)N2c1cc(Cl)c(F)c(Cl)c1)C(=O)NC1(c2ccccn2)CC1
target = MAP4K5 (Homo sapiens, UniProt Q9Y4K4); value = 94%
target = Tyrosine-protein kinase ABL1, non-phosphorylated (ABL1, Homo sapiens, UniProt P00519, H396P); value = 83%
target = PLK2 (Homo sapiens, UniProt Q9NYY3); value = 75%
target = NTRK2 (Homo sapiens, UniProt Q16620); value = 100%
target = CSNK1A1 (Homo sapiens, UniProt P48729); value = 100%
target = BMX (Homo sapiens, UniProt P51813); value = 77%
target = SRPK2 (Homo sapiens, UniProt P78362); value = 100%
target = STK3 (Homo sapiens, UniProt Q13188); value = 100%
target = SGK3 (Homo sapiens, UniProt Q96BR1); value = 100%
target = ROCK1 (Homo sapiens, UniProt Q13464); value = 100%
target = EGFR (Homo sapiens, UniProt P00533, L861Q); value = 100%
target = CLK1 (Homo sapiens, UniProt P49759); value = 86%
target = CDKL1 (Homo sapiens, UniProt Q00532); value = 73%
target = TNIK (Homo sapiens, UniProt Q9UKE5); value = 100%
target = DYRK1A (Homo sapiens, UniProt Q13627); value = 100%
target = EPHB1 (Homo sapiens, UniProt P54762); value = 85%
target = CIT (Homo sapiens, UniProt O14578); value = 100%
target = KIT (Homo sapiens, UniProt P10721, T670I/V559D); value = 100%
target = Tyrosine-protein kinase ABL1, non-phosphorylated (ABL1, Homo sapiens, UniProt P00519); value = 99%
target = SBK3 (Homo sapiens, UniProt P0C264); value = 100%

Block 2 — cell line: A-375; concentration: 100 µM; time: 18 h; measurement: viability
SMILES = Cc1cc(-c2ccc(/N=N/c3ccc4c(S(=O)(=O)O)cc(S(=O)(=O)O)c(N)c4c3O)c(C)c2)ccc1/N=N/c1ccc2c(S(=O)(=O)O)cc(S(=O)(=O)O)c(N)c2c1O; value = 109%
SMILES = Oc1cc(O)c(Cl)cn1; value = 93.7%
SMILES = CC(C)c1ccc2oc3nc(N)c(C(=O)O)cc3c(=O)c2c1; value = 94.8%
SMILES = O=c1cc(-c2ccccc2)oc2cc(O)c(O)c(O)c12; value = 56.3%
SMILES = c1ccc2c(c1)CCCC2C1=NCCN1 (stereo not shown); value = 88.5%
SMILES = C[C@@](Cc1ccc(O)c(O)c1)(NN)C(=O)O; value = 103%

Block 3 — effect on: enzyme activity; action: inhibitor; concentration: 10 µM; measurement: inhibition
Target: Calcium/calmodulin-dependent protein kinase type II subunit alpha (CAMK2A, Homo sapiens, UniProt Q9UQM7)
UniProt Q9UQM7, sequence (whole entry, looked up): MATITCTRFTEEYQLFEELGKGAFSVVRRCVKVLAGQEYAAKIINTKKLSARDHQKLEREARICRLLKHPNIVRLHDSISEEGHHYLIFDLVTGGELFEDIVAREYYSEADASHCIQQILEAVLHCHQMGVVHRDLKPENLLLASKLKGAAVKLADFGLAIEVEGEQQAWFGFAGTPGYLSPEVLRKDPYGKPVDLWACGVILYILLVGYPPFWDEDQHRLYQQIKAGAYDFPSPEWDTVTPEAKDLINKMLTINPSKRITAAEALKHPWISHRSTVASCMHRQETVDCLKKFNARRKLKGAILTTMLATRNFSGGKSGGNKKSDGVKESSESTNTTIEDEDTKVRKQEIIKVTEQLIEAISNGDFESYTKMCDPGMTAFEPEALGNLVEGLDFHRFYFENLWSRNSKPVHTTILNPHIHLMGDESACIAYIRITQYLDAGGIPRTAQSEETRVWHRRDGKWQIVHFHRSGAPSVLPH
SMILES = CC(=O)OC[C@H]1O[C@@H](O[C@@H]2[C@@H](O)[C@H](O[C@@H]3[C@H](O)C(C)(C)C[C@H]4C5=CC[C@@H]6[C@@]7(C)CC[C@H](O[C@@H]8O[C@H](C(=O)O)[C@@H](O)[C@H](O)[C@H]8O[C@@H]8O[C@H](CO)[C@H](O)[C@H](O)[C@H]8O[C@@H]8O[C@H](CO)[C@@H](O)[C@H](O)[C@H]8O)[C@](C)(CO)[C@@H]7CC[C@@]6(C)[C@]5(C)CC[C@@]34C)OC[C@@H]2O)[C@H](OC(C)=O)[C@@H](OC(C)=O)[C@@H]1OC(C)=O; value = -15%
SMILES = CC(=O)NC(CC(C)C)C(=O)O (stereo not shown); value = 8%
SMILES = Cc1c(C(=O)Nc2ccc(S(C)(=O)=O)cc2)cn(CCO)c1-c1ccccc1C(F)(F)F; value = -9%
SMILES = CCCCC(CC)COC(=O)c1ccccc1C(=O)O (stereo not shown); value = 2%

Block 4 — host: mouse; sample: microsomes or S9; concentration: 2 µM; time: 0.5 h; measurement: remaining compound
SMILES = COc1ccc(CN(C(=O)Cn2nnc3ccccc32)C(C(=O)NCCC(C)C)c2ccccc2)cc1 (stereo not shown); value = 62.1%
SMILES = Cc1cc(NNS(=O)(=O)c2cccs2)n2ncnc2n1; value = > 100%
SMILES = COc1cc(-c2c3oc4cc(O)ccc4c3nc3c2c(O)nn3C2CCCCC2)ccc1O; value = 0.286%
SMILES = Cc1nc(-c2ccc(NC(=O)c3cscn3)cc2Cl)n[nH]1; value = 50.3%
SMILES = CCOC(=O)Cn1c(=O)n(C2CCCCC2)c(=O)c2c3c(sc21)COC(C)(C)C3; value = 1.13%

Block 5 — technique: PRP chromatography estimate; sample: 1,9-decadiene/PBS; pH: 7.4; measurement: logD
Structure (SMILES) = CC(C)C[C@@H]1NC(=O)[C@H](Cc2cscn2)NC(=O)[C@H](CCC(=O)N2CCCC2)NC(=O)[C@H](C)NC(=O)[C@@H](CCC(=O)N2CCCC2)NC(=O)[C@H](CC(C)C)NC(=O)[C@@H](CC(C)C)NC1=O; value = -2.71
Structure (SMILES) = CC(C)C[C@@H]1NC(=O)[C@H](C)NC(=O)[C@H](CC(C)C)NC(=O)[C@@H](CC(C)C)NC(=O)[C@H](CC(C)C)NC(=O)[C@@H](C)NC(=O)[C@@H](CC(C)C)NC1=O; value = -0.242
Structure (SMILES) = CCC[C@@H]1NC(=O)CSC[C@@H](C(=O)OCC)N(C)C(=O)[C@H](CC(C)C)NC(=O)[C@H](C)N(C)C(=O)[C@H](CC(C)C)NC(=O)[C@H](C)N(C)C(=O)[C@H]2CCCN2C(=O)[C@@H](CC(C)C)NC(=O)CN(CCC)C1=O; value = 0.982
Structure (SMILES) = CC(C)C[C@@H]1NC(=O)[C@H](Cc2cscn2)NC(=O)[C@H](Cc2cscn2)NC(=O)[C@@H](CC(C)C)NC(=O)[C@@H](CCC(=O)N2CCCC2)NC(=O)[C@H](CC(C)C)NC(=O)[C@@H](CC(C)C)NC1=O; value = -0.673
Structure (SMILES) = CC(C)C[C@@H]1NC(=O)[C@H](C)NC(=O)[C@H](Cc2cscn2)NC(=O)[C@@H](CC(C)C)NC(=O)[C@H](C(C)C)NC(=O)[C@H](CC(C)C)NC(=O)[C@@H](CC(C)C)NC1=O; value = -0.332

A few entries again (block 1):
target = CSNK1A1 (Homo sapiens, UniProt P48729); value = 100%
target = PLK2 (Homo sapiens, UniProt Q9NYY3); value = 75%
target = EPHB1 (Homo sapiens, UniProt P54762); value = 85%
target = SBK3 (Homo sapiens, UniProt P0C264); value = 100%
target = CDKL1 (Homo sapiens, UniProt Q00532); value = 73%
